Experimental data gathered from unrelated publications.
Each numbered part is a random draw from the data of one study; scales do not carry over between parts. Substitutions count along the parent as printed.

Sample 1 — target: CCNF, cyclin fold, Cln2 fusion (human); technique: yeast growth competition, sequencing; matrix: yeast; notes: strong parent motif; reference: not given; reading: higher = stronger binding; endpoint: normalised enrichment score; starting sequence: viral docking peptide; YKVKRRLVFGADD
G10S: 8.27
R5Q: 5.66
G10W: 9.37
G10K: 7.76
K2H: 8.88
V3G: 8.2
V3R: 6.03
F9D: 1.16
R5K F9L: 6.64
R6E: 7.16
D12T: 9.41
R6A: 8.93
L7E: 0.398
A11C: 8.78
G10E: 8.15

Sample 2 — technique: protein-binding microarray; form: double-stranded DNA, one strand shown; matrix: in vitro; tested at: not given; reading: higher = stronger binding; endpoint: E-score
Target: Myc proto-oncogene protein, bHLH-zipper, MAX partner unstated (MYC, Homo sapiens, UniProt P01106, residues 368-449)
Chain of UniProt P01106 (368-449, looked up): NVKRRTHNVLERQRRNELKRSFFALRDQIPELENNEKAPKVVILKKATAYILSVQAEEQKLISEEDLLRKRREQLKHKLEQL
Notes: k-mer, scored over probes, only values ≥0.25
CACGTTAC: 0.379
CATGTGTA: 0.464
ACGTGTAC: 0.399
GTCGCCAC: 0.269
CGTGGATC: 0.31
CCACGAGA: 0.406
ATGCGTTA: 0.27
ATGCCACA: 0.307

Sample 3 — technique: RNAcompete; form: RNA; matrix: in vitro; tested at: 20 nM; notes: 7-mer, probes averaged, single round; reference: mean of 7-mers; reading: higher = stronger binding; endpoint: 7-mer Z-score
Target: PABPC1L2, full length, GST fusion (mouse, UniProt A0ABA7IW68)
Target sequence (chain): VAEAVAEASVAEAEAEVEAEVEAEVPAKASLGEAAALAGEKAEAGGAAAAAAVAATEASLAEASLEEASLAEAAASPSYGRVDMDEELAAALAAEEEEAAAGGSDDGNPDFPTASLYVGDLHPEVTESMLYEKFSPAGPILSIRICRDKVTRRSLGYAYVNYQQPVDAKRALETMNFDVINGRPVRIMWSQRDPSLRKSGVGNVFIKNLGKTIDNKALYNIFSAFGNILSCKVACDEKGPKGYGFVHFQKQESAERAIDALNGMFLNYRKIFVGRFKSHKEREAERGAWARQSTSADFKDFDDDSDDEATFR
UACUUUA: -0.0518
CGGUCAA: -0.184
UUUUCCC: -0.452
GGGGAGC: 0.231
AUGCUUG: -0.242
AAAUGUA: 0.861
CCAAACA: 1.53
GGUCGGA: -0.0355

Further values, each from its own experiment — read-out: peptide-MHC binding; form: peptide; tested at: concentration not given
Target: HLA class I histocompatibility antigen, C alpha chain, allele C*04:01 (Homo sapiens, UniProt P10321)
RIFPATHYV — binding: inactive
IYYWTAWLI — binding: inactive
HYMLKHLVW — binding: inactive

For quick reference, copied from above (sample 2):
CCACGAGA: 0.406
ATGCCACA: 0.307
ACGTGTAC: 0.399
